Measured values pooled from the literature.
Protocols differ between the studies behind these lines.
Technique: steady-state kinetics
B1: POLK T408W/W214Y/W392H (Homo sapiens, UniProt Q9UBT6); chain MGLNDNKAGMEGLDKEKINKIIMEATKGSRFYGNELKKEKQVNQRIENMMQQKAQITSQQLRKAQLQVDRFAMELEQSRNLSNTIVHIDMDAFYAAVEMRDNPELKDKPIAVGSMSMLSTSNYHARRFGVRAAMPGFIAKRLCPQLIIVPPNFDKYRAVSKEVKEILADYDPNFMAMSLDEAYLNITKHLEERQNYPEDKRRYFIKMGSSVENDNPGKEVNKLSEHERSISPLLFEESPSDVQPPGDPFQVNFEEQNNPQILQNSVVFGTSAQEVVKEIRFRIEQKTTLTASAGIAPNTMLAKVCSDKNKPNGQYQILPNRQAVMDFIKDLPIRKVSGIGKVTEKMLKALGIITCTELYQQRALLSLLFSETSHHYFLHISLGLGSTHLWRDGERKSMSVERTFSEINKAEEQYSLCQELCSELAQDLQKERLKGRTVTIKLKNVNFEVKTRASTVSSVVSTAEEIFAIAKELLKTEIDADFPHPLRLRLMGVRISSFPNEEDRKHQQ
B2: estF (Pseudomonas fluorescens, UniProt P22862); chain STFVAKDGTQIYFKDWGSGKPVLFSHGWLLDADMWEYQMEYLSSRGYRTIAFDRRGFGRSDQPWTGNDYDTFADDIAQLIEHLDLKEVTLVGFSMGGGDVARYIARHGSARVAGLVLLGAVTPLFGQKPDYPQGVPLDVFARFKTELLKDRAQFISDFNAPFYGINKGQVVSQGVQTQTLQIALLASLKATVDCVTAFAETDFRPDMAKIDVPTLVIHGDGDQIVPFETTGKVAAELIKGAELKVYKDAPHGFAVTHAQQLNEDLLAFLKR
B3: enzyme (Candida albicans, UniProt A0A1D8PHX1); chain MISIIQNGISQLSSVSGLDEANLKILICTLLSFPFGIIFKRLPDHDYTLKNIYNVAVSCFYVFGICDLRFGISTLLISATGSYFITRYVRTKSMPWINFLFLMIHMAYSHFHLQFFKEYDPKSIDITGAQMILVMKLSAFGWNIHDGKQPRSTLNDFNKARAITKHPNVLPYIGYVFFYASLLTGPAFDYADYDKFIHGTLFDDVPQDKRPGKNKRRIPRSGVQAFKKFSLGFFWAFLLLQSDKFVTMEYMFSPEFVQYHGLFYRIIYMWILGFTFRLKYYTIWTIAEGACILCGIGYNGVDPETGEFKWNRVQNIDPWSFETGQNVHACLEAWNQNTNIWLKNYVYLRVAKPGKKPGFKSTIFTFTTSAFWHGTRPGYYLTFVVGALMQTVGKYYRRNFRPIFLEADGKTPKPTKIVYDFVCWVNTQLAFGFFVQPFVILGFTKSLECWATVYYWLLWVIAISFFAFSGPFAKSVSKFFKSLQPSYREQQRKSREDKYKLNNEEASIVEQAVGAKLGQDYDIPALGLPPFDVFTDFDQTEVDHDIQHLRKAWTSFRGRRGSITENDFDGLKDAYNNFTNEINDIFNTKKEEFKKEKLNKQN
B4: enzyme R120K (Arabidopsis thaliana, UniProt O82390); chain MNARALLCSSNIHSLYTSNRPPEKTSSSRSLRNLKPSPKSLRVWIYPRNRSSVFRVLVRSSDKSESSNSYYVEGDKVSGNNDVVSDSPSSIVLPWWEEFPKRWVIVLLCFSAFLLCNMDKVNMSIAILPMSAEYGWNPATVGLIQSSFFWGYLLTQIAGGIWADTVGGKRVLGFGVIWWSIATILTPVAAKLGLPYLLVVRAFMGVGEGVAMPAMNNILSKWVPVQERSRSLALVYSGMYLGSVTGLAFSPFLIHQFGWPSVFYSFGSLGTVWLTLWLTKAESSPLEDPTLLPEERKLIADNCASKEPVKSIPWRLILSKPPVWALISCHFCHNWGTFILLTWMPTYYHQVLKFNLMESGLLSVFPWMTMAISANAGGWIADTLVSRGFSVTNVRKIMQTIGFLGPAFFLTQLKHIDSPTMAVLCMACSQGTDAFSQSGLYSNHQDIAPRYSGVLLGLSNTAGVLAGVLGTAATGHILQHGSWDDVFTISVGLYLVGTVIWNLFSTGEKIID
B5: MMP2 (Homo sapiens, UniProt P08253); chain YNFFPRKPKWDKNQITYRIIGYTPDLDPETVDDAFARAFQVWSDVTPLRFSRIHDGEADIMINFGRWEHGDGYPFDGKDGLLAHAFAPGTGVGGDSHFDDDELWTLGEGQVVRVKYGNADGEYCKFPFLFNGKEYNSCTDTGRSDGFLWCSTTYNFEKDGKYGFCPHEALFTMGGNAEGQPCKFPFRFQGTSYDSCTTEGRTDGYRWCGTTEDYDRDKKYGFCPETAMSTVGGNSEGAPCVFPFTFLGNKYESCTSAGRSDGKMWCATTANYDDDRKWGFCPDQGYSLFLVAAHEFGHAMGLEHSQDPGALMAPIYTYTKNFRLSQDDIKGIQELYGASPDIDLGTGPTPTLGPVTPEICKQDIVFDGIAQIRGEIFFFKDRFIWRTVTPRDKPMGPLLVATFWPELPEKIDAVYEAPQEEKAVFFAGNEYWIYSASTLERGYPKPLTSLGLPPDVQRVDAAFNWSKNKKTYIFAGDKFWRYNEVKKKMDPGFPKLIADAWNAIPDNLDAVVDLQGGGHSYFFKGAYYLKLENQSLKSVKFGSIKSDWLGC
B6: Msh2/Msh3 (Saccharomyces cerevisiae); chain 1 MSSTRPELKFSDVSEERNFYKKYTGLPKKPLKTIRLVDKGDYYTVIGSDAIFVADSVYHTQSVLKNCQLDPVTAKNFHEPTKYVTVSLQVLATLLKLCLLDLGYKVEIYDKGWKLIKSASPGNIEQVNELMNMNIDSSIIIASLKVQWNSQDGNCIIGVAFIDTTAYKVGMLDIVDNEVYSNLESFLIQLGVKECLVQDLTSNSNSNAEMQKVINVIDRCGCVVTLLKNSEFSEKDVELDLTKLLGDDLALSLPQKYSKLSMGACNALIGYLQLLSEQDQVGKYELVEHKLKEFMKLDASAIKALNLFPQGPQNPFGSNNLAVSGFTSAGNSGKVTSLFQLLNHCKTNAGVRLLNEWLKQPLTNIDEINKRHDLVDYLIDQIELRQMLTSEYLPMIPDIRRLTKKLNKRGNLEDVLKIYQFSKRIPEIVQVFTSFLEDDSPTEPVNELVRSVWLAPLSHHVEPLSKFEEMVETTVDLDAYEENNEFMIKVEFNEELGKIRSKLDTLRDEIHSIHLDSAEDLGFDPDKKLKLENHHLHGWCMRLTRNDAKELRKHKKYIELSTVKAGIFFSTKQLKSIANETNILQKEYDKQQSALVREIINITLTYTPVFEKLSLVLAHLDVIASFAHTSSYAPIPYIRPKLHPMDSERRTHLISSRHPVLEMQDDISFISNDVTLESGKGDFLIITGPNMGGKSTYIRQVGVISLMAQIGCFVPCEEAEIAIVDAILCRVGAGDSQLKGVSTFMVEILETASILKNASKNSLIIVDELGRGTSTYDGFGLAWAIAEHIASKIGCFALFATHFHELTELSEKLPNVKNMHVVAHIEKNLKEQKHDDEDITLLYKVEPGISDQSFGIHVAEVVQFPEKIVKMAKRKANELDDLKTNNEDLKKAKLSLQEVNEGNIRLKALLKEWIRKVKEEGLHDPSKITEEASQHKIQELLRAIANEPEKENDNYLKYIKALLL; chain 2 MAGQPTISRFFKKAVKSELTHKQEQEVAVGNGAGSESICLDTDEEDNLSSVASTTVTNDSFPLKGSVSSKNSKNSEKTSGTSTTFNDIDFAKKLDRIMKRRSDENVEAEDDEEEGEEDFVKKKARKSPTAKLTPLDKQVKDLKMHHRDKVLVIRVGYKYKCFAEDAVTVSRILHIKLVPGKLTIDESNPQDCNHRQFAYCSFPDVRLNVHLERLVHHNLKVAVVEQAETSAIKKHDPGASKSSVFERKISNVFTKATFGVNSTFVLRGKRILGDTNSIWALSRDVHQGKVAKYSLISVNLNNGEVVYDEFEEPNLADEKLQIRIKYLQPIEVLVNTDDLPLHVAKFFKDISCPLIHKQEYDLEDHVVQAIKVMNEKIQLSPSLIRLVSKLYSHMVEYNNEQVMLIPSIYSPFASKIHMLLDPNSLQSLDIFTHDGGKGSLFWLLDHTRTSFGLRMLREWILKPLVDVHQIEERLDAIECITSEINNSIFFESLNQMLNHTPDLLRTLNRIMYGTTSRKEVYFYLKQITSFVDHFKMHQSYLSEHFKSSDGRIGKQSPLLFRLFSELNELLSTTQLPHFLTMINVSAVMEKNSDKQVMDFFNLNNYDCSEGIIKIQRESESVRSQLKEELAEIRKYLKRPYLNFRDEVDYLIEVKNSQIKDLPDDWIKVNNTKMVSRFTTPRTQKLTQKLEYYKDLLIRESELQYKEFLNKITAEYTELRKITLNLAQYDCILSLAATSCNVNYVRPTFVNGQQAIIAKNARNPIIESLDVHYVPNDIMMSPENGKINIITGPNMGGKSSYIRQVALLTIMAQIGSFVPAEEIRLSIFENVLTRIGAHDDIINGDSTFKVEMLDILHILKNCNKRSLLLLDEVGRGTGTHDGIAISYALIKYFSELSDCPLILFTTHFPMLGEIKSPLIRNYHMDYVEEQKTGEDWMSVIFLYKLKKGLTYNSYGMNVAKLARLDKDIINRAFSISEELRKESINEDALKLFSSLKRILKSDNITATDKLAKLLSLDIH
Sequence of UniProt P34752 (whole entry, looked up): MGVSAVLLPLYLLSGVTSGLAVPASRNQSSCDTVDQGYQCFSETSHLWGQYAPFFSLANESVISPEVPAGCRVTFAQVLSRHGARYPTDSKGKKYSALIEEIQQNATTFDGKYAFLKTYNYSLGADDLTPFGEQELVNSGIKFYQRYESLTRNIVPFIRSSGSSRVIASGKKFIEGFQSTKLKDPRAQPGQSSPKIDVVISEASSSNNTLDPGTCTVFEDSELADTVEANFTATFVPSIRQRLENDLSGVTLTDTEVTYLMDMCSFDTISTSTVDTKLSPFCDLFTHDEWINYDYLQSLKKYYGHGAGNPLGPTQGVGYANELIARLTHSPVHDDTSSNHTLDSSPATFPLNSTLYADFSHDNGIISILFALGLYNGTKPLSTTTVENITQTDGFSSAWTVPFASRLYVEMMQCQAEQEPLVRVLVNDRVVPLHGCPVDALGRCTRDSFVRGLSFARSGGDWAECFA
Sequence of UniProt Q8QZR1 (whole entry, looked up): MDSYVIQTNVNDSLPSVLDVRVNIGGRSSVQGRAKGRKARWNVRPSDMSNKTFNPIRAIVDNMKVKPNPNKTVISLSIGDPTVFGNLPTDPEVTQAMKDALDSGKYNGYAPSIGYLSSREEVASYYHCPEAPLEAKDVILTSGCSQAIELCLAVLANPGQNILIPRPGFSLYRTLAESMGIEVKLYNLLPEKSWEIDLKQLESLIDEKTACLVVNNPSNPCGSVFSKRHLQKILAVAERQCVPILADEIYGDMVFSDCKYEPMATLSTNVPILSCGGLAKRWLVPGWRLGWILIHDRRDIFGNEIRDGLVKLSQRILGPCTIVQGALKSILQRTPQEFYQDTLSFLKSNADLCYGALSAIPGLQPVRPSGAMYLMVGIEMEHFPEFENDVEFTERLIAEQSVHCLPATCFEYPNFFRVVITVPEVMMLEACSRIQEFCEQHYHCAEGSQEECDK
Sequence of UniProt Q7L266 (whole entry, looked up): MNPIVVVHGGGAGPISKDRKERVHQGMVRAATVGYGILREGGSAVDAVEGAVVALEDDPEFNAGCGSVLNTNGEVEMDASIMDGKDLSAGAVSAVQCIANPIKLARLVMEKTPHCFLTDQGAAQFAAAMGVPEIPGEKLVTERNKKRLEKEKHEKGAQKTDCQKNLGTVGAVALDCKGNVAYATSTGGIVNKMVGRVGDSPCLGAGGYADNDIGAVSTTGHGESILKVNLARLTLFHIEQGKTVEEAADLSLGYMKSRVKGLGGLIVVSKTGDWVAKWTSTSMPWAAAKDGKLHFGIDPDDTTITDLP
Sequence of UniProt P07914 (whole entry, looked up): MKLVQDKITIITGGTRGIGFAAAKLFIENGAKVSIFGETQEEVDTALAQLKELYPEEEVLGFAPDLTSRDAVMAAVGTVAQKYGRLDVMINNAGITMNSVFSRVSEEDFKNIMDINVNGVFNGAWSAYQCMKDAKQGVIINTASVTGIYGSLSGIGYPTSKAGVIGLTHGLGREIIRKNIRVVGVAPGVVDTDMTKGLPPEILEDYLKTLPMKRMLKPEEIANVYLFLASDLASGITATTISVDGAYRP

B1 (POLK T408W/W214Y/W392H) — Km (Nc1ccn([C@H]2C[C@H](O)[C@@H](COP(=O)(O)OP(=O)(O)OP(=O)(O)O)O2)c(=O)n1; pH 7.5, 23 °C, MgCl2 5 mM, added: G template): 1.3 µM
pgmB H20N (Lactococcus lactis) (sequence not shown) — Km (O=P(O)(O)OC[C@H]1O[C@@H](OP(=O)(O)O)[C@H](O)[C@@H](O)[C@@H]1O; pH 7, 25 °C): 1.49 µM
B2 (estF) — Km (CCOC(C)=O; pH 6.5, 23 °C, apparent): 15000 µM
B3 (enzyme) — Km (CCCCCCCCCCCCCCCCCC(=O)SCCNC(=O)CCNC(=O)[C@H](O)C(C)(C)COP(=O)(O)OP(=O)(O)OC[C@H]1O[C@@H](n2cnc3c(N)ncnc32)[C@H](O)[C@@H]1OP(=O)(O)O; pH 7.4, 37 °C, apparent, not purified): 29.4 µM
B4 (enzyme R120K) — Km (O=P(O)(O)O; pH 6.5, 25 °C, apparent, not purified): 161 µM
phyA (Aspergillus niger, UniProt P34752) — Km (O=P(O)(O)O[C@@H]1[C@H](OP(=O)(O)O)[C@H](O)[C@@H](O)[C@H](O)[C@H]1OP(=O)(O)O; pH 5, 37 °C): 223 µM
B5 (MMP2) — Km (CC(=O)NCC(=O)N1CCC[C@H]1C(=O)N[C@@H](CC(C)C)C(=O)NCC(=O)N[C@@H](CC(C)C)C(=O)N[C@@H](CO)C(=O)N[C@@H](CC(C)C)C(=O)NCC(=O)N[C@@H](CCCCN)C(N)=O): 216 µM
B6 (Msh2/Msh3) — Km (Nc1ncnc2c1ncn2[C@@H]1O[C@H](COP(=O)(O)OP(=O)(O)OP(=O)(O)O)[C@@H](O)[C@H]1O; pH 7.5, 30 °C, no DNA, added: magnesium acetate 2 mM): 842 µM
ASRGL1 (Homo sapiens, UniProt Q7L266) — Km (COC(=O)C[C@H](N)C(=O)O; pH 7.4, 37 °C, NaCl 100 mM): 400 µM
enzyme (UniProt A0A7J5BGR1) — Km (C=CCc1ccc(O)c(OC)c1; pH 8, 25 °C): 9.5 µM
Tat (Mus musculus, UniProt Q8QZR1) — Km (O=C(O)C(=O)Cc1ccc(O)cc1; pH 7, 38 °C, added: PLP): 700 µM
BaiA1 (Clostridium scindens, UniProt P07914) — Km (C[C@H](CCC(=O)SCCNC(=O)CCNC(=O)[C@H](O)C(C)(C)COP(=O)(O)OP(=O)(O)OC[C@H]1O[C@@H](n2cnc3c(N)ncnc32)[C@H](O)[C@@H]1OP(=O)(O)O)[C@H]1CC[C@H]2[C@@H]3CC[C@@H]4C[C@H](O)CC[C@]4(C)[C@H]3C[C@H](O)[C@]12C; pH 8.7, 37 °C, added: NAD+): 16 µM

Repeated from above:
B6 (Msh2/Msh3) — Km (Nc1ncnc2c1ncn2[C@@H]1O[C@H](COP(=O)(O)OP(=O)(O)OP(=O)(O)O)[C@@H](O)[C@H]1O; pH 7.5, 30 °C, no DNA, added: magnesium acetate 2 mM): 842 µM
